Assay results pooled from the literature.
Compare with care: the assays were run in different laboratories. Several values in a cell are separate wells, animals, samples, runs or records.
Target: Mitogen-activated protein kinase kinase kinase kinase 4 (MAP4K4, Homo sapiens, UniProt O95819)

test | test system | conditions | how to read | endpoint | result | SMILES
enzyme activity, inhibitor |  | 0.1 µM |  | inhibition | 6% | CN1CCN(Cc2ccc(-c3ccc(CO[C@H]4CCC[C@@H]4NC(=O)c4cc(-c5cnn(C)c5)cnc4N)cc3)cc2)CC1
enzyme activity, inhibitor |  | 1 µM |  | inhibition | 3% | Cc1cccc(O[C@H]2CCC[C@@H](C(C)CNCc3ccncc3)C2)c1 (relative stereo)
binding |  | 0.1 µM |  | remaining binding | 89% | Cc1cnc2nc1Nc1cccc(c1)COC/C=C/COCc1cc(ccc1OCCN1CCOCC1)N2
kinobead competition pulldown | HEK293/HCT116 lysate mixture | 10 µM, 1 h, 4 °C | lower = stronger competition | log2 LFQ intensity | 22.1 and 22 and 21.8 | N[C@H]1CC[C@H](Nc2nccc(-c3cccnc3Oc3ccc(NC(=O)NC4CC4)c4ccccc34)n2)CC1
enzyme activity, inhibitor |  | 1 µM |  | activity vs control | 99% | CNC(=O)C[C@H](Cc1ccc(C#N)cc1)NC(=O)c1cc(-c2ccc(CN[C@H](C)c3ccc(C)cc3)o2)ccc1Cl
cell-free assay, competition with immobilised ligand |  | 1 µM |  | remaining binding | 95% | Cc1ccc(-c2c(/C=C(\C#N)C(=O)NC(C)C)n(CCCO)c3ncnc(N)c23)cc1
binding, competition with immobilised ligand |  | 3 µM |  | remaining binding | 48% | COc1c(Cl)cccc1Nc1c(-c2ccncc2C#C[C@@]2(C)CCCN2C(=O)/C=C/CN(C)C)[nH]c2c1C(=O)NCC2
enzyme activity, inhibitor |  | 0.1 µM |  | inhibition | 25% | C=CC(=O)Nc1cccc(-c2cnc3[nH]cc(C(=O)NC(C)(C)C)c3n2)c1
KINOMEscan |  | 1 µM | baseline: DMSO control | remaining binding | 100% | C=CC(=O)N1CCc2ccc(-n3c(=O)ccc4cnc5ccc(-c6cnn(C)c6)cc5c43)cc21
enzyme activity, inhibitor |  | 10 µM |  | inhibition | 26% | NC(=O)C[C@H]1CCc2sc3ncnc(O[C@H]4CC[C@H](N5CCOCC5)CC4)c3c21
cell-free assay, competition with immobilised ligand |  | 1 µM |  | remaining binding | 73% | C=CC(=O)N1CCCC(n2c(=O)c3ncccc3n(Cc3ccc(Oc4ccccc4)cc3)c2=O)C1 (stereo not shown)
binding, competition with immobilised ligand |  | 1 µM |  | remaining binding | 87% | CNC(=O)C1CCN(c2cc(C)c(F)cc2NC(=O)c2ccc(-c3cc(O)ccc3C)c(C)c2)CC1
cell-free assay, inhibitor |  | 1 µM |  | inhibition | 26.4% | C=CC(=O)N1Cc2nc(-c3cc(-c4cc(Cl)cnc4Cl)c(F)cc3F)n(-c3ccncn3)c2C1
enzyme activity, inhibitor |  | 10 µM |  | inhibition | 0.78% | COc1cc(-n2cc3cc(F)cc(C(N)=O)c3n2)cc(Cl)c1C1CC(O)(CCO)Cc2ccccc21 (stereo not shown)
enzyme activity, inhibitor |  | 1 µM |  | inhibition | 20% | CN1CC[C@@H](COc2cnc(C#N)cc2-c2ccn3nc(NC(=O)C4CC4)cc3c2)C1
inhibitor |  | 1 µM | baseline: control | remaining activity | 99% | COc1cc(Nc2nc(C)cc(-c3cnn4nc(OC)ccc34)n2)cc(C(F)(F)F)c1

A few entries again:
test | test system | conditions | how to read | endpoint | result | SMILES
cell-free assay, inhibitor |  | 1 µM |  | inhibition | 26.4% | C=CC(=O)N1Cc2nc(-c3cc(-c4cc(Cl)cnc4Cl)c(F)cc3F)n(-c3ccncn3)c2C1
binding |  | 0.1 µM |  | remaining binding | 89% | Cc1cnc2nc1Nc1cccc(c1)COC/C=C/COCc1cc(ccc1OCCN1CCOCC1)N2
